# Assay results collected from several papers.
# Protocols differ between the studies behind these lines.
# Observed: DPPH scavenging
SMILES,assay,setting,IC50
CC1(C)C2CC[C@@]1(C)C(=O)/C2=C/c1ccsc1,,15 min,463 µM
O=c1[nH]c(N2CCOCC2)nc2nc(-c3ccccc3)cc(-c3ccc4ccccc4n3)c12,absorbance,30 min,174 µM
Cc1ccc(C(=O)N(C(=O)c2ccc(C)cc2)C(=S)N2N=C(c3ccc(C)cc3)CC2c2ccc(Cl)cc2)cc1 (centres unmarked),absorbance,,105 µM
Fc1ccc2[nH]c(-c3ccc(OCc4ccccc4)cc3)nc2c1,absorbance,,1.62 µM
CC12CCC(CC1=O)C2(C)C (centres unmarked),,15 min,> 2630 µM
O=C1O[C@H]([C@@H](O)CO)C(O)=C1O,,30 min,124 µM
Cc1ccc(C(=O)N(C(=O)c2ccc(C)cc2)C(=S)N2N=C(c3ccc(Cl)cc3)CC2c2ccc(Cl)cc2)cc1 (centres unmarked),absorbance,,112 µM
CC1(C)C2CC[C@]1(C)C(=O)/C2=C/c1ccoc1,,15 min,472 µM
Cc1ccc(C(=O)N(C(=O)c2ccc(C)cc2)C(=S)N2N=C(c3ccc(Cl)cc3)CC2c2ccc(F)cc2)cc1 (centres unmarked),absorbance,,106 µM
O=C1O[C@H]([C@@H](O)CO)C(O)=C1O,absorbance,dark,82 µM
CC1(C)C2CC[C@]1(C)C(=O)/C2=C/c1ccco1,,15 min,430 µM
NC1=NC(=S)NC12CCCCC2,,,263 µg/mL
CS(=O)(=O)c1nc2nc(-c3ccccc3)cc(-c3ccc4ccccc4n3)c2c(=O)[nH]1,absorbance,30 min,178 µM
Cc1ccc(C(=O)N(C(=O)c2ccc(C)cc2)C(=S)N2N=C(c3ccccc3)CC2c2ccc(F)cc2)cc1 (centres unmarked),absorbance,,104 µM
CSc1nc(Cl)c2c(-c3ccc4ccccc4n3)cc(-c3ccccc3)nc2n1,absorbance,30 min,181 µM
O=C1O[C@H]([C@@H](O)CO)C(O)=C1O,,,4.08 µg/mL
O=C(O)c1ccccc1Nc1nc2nc(-c3ccccc3)cc(-c3ccc4ccccc4n3)c2c(=O)[nH]1,absorbance,30 min,177 µM
Fc1ccc2[nH]c(-c3ccccc3OCc3ccccc3)nc2c1,absorbance,,1.56 µM
c1ccc(-c2cc(-c3ccc4ccccc4n3)c3c(N4CCOCC4)nc(N4CCOCC4)nc3n2)cc1,absorbance,30 min,149 µM
O=C1O[C@H]([C@@H](O)CO)C(O)=C1O,absorbance,,2.88 µg/mL
O=c1[nH]c(N2CCNCC2)nc2nc(-c3ccccc3)cc(-c3ccc4ccccc4n3)c12,absorbance,30 min,172 µM
CC1(C)C2CC[C@@]1(C)C(=O)/C2=C/c1cc2ccccc2o1,,15 min,516 µM
O=c1c2c(-c3ccc4ccccc4n3)cc(-c3ccccc3)nc2nc2n(-c3ccccc3)nc(-c3ccccc3)n12,absorbance,30 min,142 µM
Cc1cc2nc(-c3ccc(OCc4ccccc4)cc3)[nH]c2cc1C,absorbance,,1.58 µM
CSc1nc2nc(-c3ccccc3)cc(-c3ccc4ccccc4n3)c2c(=O)[nH]1,absorbance,30 min,186 µM
CC1(C)C2CC[C@@]1(C)C(=O)/C2=C/c1cccs1,,15 min,488 µM
